Published values of several laboratories.
± marks the error that the study gave. Converted amounts (≈) assume the structure as drawn.

| SMILES | tested on | assay | system | setting | scale | measurement | value |
| --- | --- | --- | --- | --- | --- | --- | --- |
| c1ccc(CN2CCNCCN(Cc3ccccc3)CCNCC2)cc1 | Leishmania donovani | parasite growth, resazurin |  | 72 h, promastigote |  | IC50 | 10.5 µM |
| C[C@@](O)(C(F)F)[C@H](NC(=O)c1ccc(C#CC#CC2CC2)cc1)C(=O)NO | Stenotrophomonas maltophilia | agar dilution | clinical isolates |  |  | MIC50 | 0.25 mg/L (≈ 0.664 µM) |
| CC/C=C\C/C=C\C/C=C\C/C=C\C/C=C\C/C=C\CCC(=O)Nc1ccn(C2OC(CO)C(O)C2(F)F)c(=O)n1 (stereo not shown) | MALME-3M | NCI-60 screen |  |  |  | CC50 | 51.6 µM |
| CC(/C=C/C(O)=C1/C(=O)CNC1=O)=C\[C@@H](C)[C@H]1O[C@@]2(C)O[C@H](C(=O)[C@@H]3O[C@@]32CO)[C@@H]1C | Enterococcus |  | vancomycin-resistant |  |  | MIC | 12.5 µM (≈ 5.42 µg/mL) |
| CC(C)C[C@H](NC(=O)[C@H](CO)NC(=O)[C@H](CCCNC(=N)N)NC(=O)[C@H](CCCCN)NC(=O)[C@@H](NC(=O)[C@@H](NC(=O)CNC(=O)[C@H](CCCNC(=N)N)NC(=O)[C@H](Cc1c[nH]cn1)NC(=O)[C@H](Cc1c[nH]c2ccccc12)NC(=O)[C@H](Cc1ccccc1)NC(=O)[C@H](Cc1c[nH]cn1)NC(=O)[C@H](Cc1ccc(O)cc1)NC(=O)[C@@H](N)Cc1ccc(O)cc1)C(C)C)[C@@H](C)O)C(=O)N[C@@H](CO)C(=O)N1CCC[C@H]1C(=O)N[C@@H](Cc1c[nH]cn1)C(=O)N[C@@H](CCCNC(=N)N)C(=O)N1CCC[C@H]1C(=O)N[C@@H](CCCNC(=N)N)C(=O)O | LPS, Escherichia coli 0111:B4 | isothermal titration calorimetry |  | pH 7, 37 °C |  | Kd | 7.65 µM |
| CC[C@H](C)[C@H](NC(=O)[C@H](CCCNC(=N)N)NC(=O)[C@H](CCC(N)=O)NC(=O)[C@H](CC(=O)O)NC(=O)[C@H](CC(C)C)NC(=O)[C@H](CC(C)C)NC(=O)[C@H](CC(N)=O)NC(=O)[C@H](Cc1ccccc1)NC(=O)[C@H](CC(=O)O)NC(=O)[C@@H](NC(=O)[C@@H](NC(=O)[C@H](CC(N)=O)NC(=O)CNC(=O)[C@H](CO)NC(C)=O)C(C)C)[C@@H](C)CC)C(=O)N[C@H](C(=O)N[C@@H](Cc1c[nH]c2ccccc12)C(=O)N[C@@H](CCC(N)=O)C(=O)N[C@@H](CC(N)=O)C(=O)N[C@@H](Cc1c[nH]c2ccccc12)C(=O)N[C@@H](Cc1ccc(O)cc1)C(=O)N[C@@H](C)C(N)=O)[C@@H](C)CC |  | item: HA-52 tetramer | antigen-experienced tetramer+ CD4 T cells, healthy adults, HLA-DRB1*0101 | dose not given |  | α4β7+ CCR9+ cells | 11.1% |
| COc1ccc2cc1Oc1ccc(cc1)C[C@H]1c3cc(c(OC)cc3CC[N+]1(C)Cc1ccc3ccccc3c1)Oc1c(OC)c(OC)cc3c1[C@H](C2)[N+](C)(Cc1ccc2ccccc2c1)CC3 (mixture of isomers) | mixed-sequence 12-bp dsDNA | DNA binding, ethidium bromide displacement | phosphate buffer, 10% DMSO | pH 7.2, 25 °C, dsDNA 10 µM, 10 mM NaCl, with: ethidium bromide 5 µM |  | Stern-Volmer constant | 16900 M⁻¹ |
| CC(=O)[O-].F[P-](F)(F)(F)(F)F.[Ni+2].c1ccc(CN2CCN3CCN(CC2)CCN(Cc2ccccc2)CC3)cc1 | Leishmania donovani | parasite growth | THP-1 macrophages | intracellular amastigotes |  | IC90 | > 20 µM |
| CC[C@@H]1CN2CCc3c([nH]c4cccc(OC)c34)[C@@H]2C[C@@H]1/C(=C\OC)C(=O)OC | rabbit anti-mitragynine polyclonal IgG | competitive indirect ELISA |  | salt 0.17 M |  | IC50 | 0.608 mg/L |
| CN(C)CCc1c[nH]c2ccc(F)cc12 |  |  | mouse, prefrontal cortex | intraperitoneal, 10 mg/kg, 30 min |  | Egr1 mRNA level | increased |
| O=C(O)CC[C@H](NC(=O)N[C@@H](CCCCNC(=O)[C@H](Cc1ccc2ccccc2c1)NC(=O)[C@H]1CC[C@H](CNC(=O)CNC(=O)CNC(=O)CNC(=O)CN2CCN(CC(=O)O)CCN(C(CCC(=O)NCCC[P+](c3ccccc3)(c3ccccc3)c3ccccc3)C(=O)O)CCN(CC(=O)O)CC2)CC1)C(=O)O)C(=O)O (stereo partly shown) [terbium-161 labelled] | LNCaP (PSMA+) |  |  | concentration not given | baseline: cell-associated | internalized activity | 50.2% |
| C/C1=C\CC[C@@]2(C)O[C@H]2[C@H]2OC(=O)C(C)[C@@H]2CC1 (stereo partly shown) | U-87 MG | cell growth or viability, resazurin |  |  |  | IC50 | > 500 µM |
| O=C(O)CC[C@H](NC(=O)N[C@@H](CCCCNC(=O)[C@H](Cc1ccc2ccccc2c1)NC(=O)[C@H]1CC[C@H](CNC(=O)CN2CCN(CC(=O)O)CCN(C(CCC(=O)NCCC[P+](c3ccccc3)(c3ccccc3)c3ccccc3)C(=O)O)CCN(CC(=O)O)CC2)CC1)C(=O)O)C(=O)O (stereo partly shown) [terbium-161 labelled] | PC-3 PIP |  |  |  | baseline: applied activity | mitochondrial uptake | 5.4 ± 0.4% |
| CN[C@](C)(C[18F])C(=O)O | A549 tumour model |  | host not given, blood | 30 min, tumour-bearing |  | tracer uptake | 1.8 %ID/g |
| CN(C(=O)CN1CCCC2=CC3CC(CN4CCCCC34)C21)c1ccc(Br)cc1 (stereo not shown) | vesicular stomatitis virus | pseudovirus entry |  | VSV G pseudovirus |  | EC50 | 153 µM |
| Nc1ccc(/C=C/C(=O)N2CCc3c(oc4c(-c5ccc(F)cc5)cc(-c5ccc(C(=O)N6CCC(F)(F)CC6)cn5)cc34)C2)cn1 | MIA PaCa-2 | phosphorylation, Western blot, item: phospho-β-catenin |  | 72 h |  | IC50 | 0.73 µM |
| CC(C)C[C@H](NC(=O)[C@H](CO)NC(=O)[C@H](CCCNC(=N)N)NC(=O)[C@H](CCCCN)NC(=O)[C@@H](NC(=O)[C@@H](NC(=O)CNC(=O)[C@H](CCCNC(=N)N)NC(=O)[C@H](Cc1c[nH]cn1)NC(=O)[C@H](Cc1c[nH]c2ccccc12)NC(=O)[C@H](Cc1ccccc1)NC(=O)[C@H](Cc1c[nH]cn1)NC(=O)[C@H](Cc1ccc(O)cc1)NC(=O)[C@@H](N)Cc1ccc(O)cc1)C(C)C)[C@@H](C)O)C(=O)N[C@@H](CO)C(=O)N1CCC[C@H]1C(=O)N[C@@H](Cc1c[nH]cn1)C(=O)N[C@@H](CCCNC(=N)N)C(=O)N1CCC[C@H]1C(=O)N[C@@H](CCCNC(=N)N)C(=O)N[C@@H](Cc1c[nH]cn1)C(=O)N[C@@H](CO)C(=O)N[C@@H](CCCNC(=N)N)C(=O)O | LPS, Escherichia coli 0111:B4 | isothermal titration calorimetry |  | pH 7, 37 °C |  | Kd | 7.09 µM |
| CC[C@H](C)[C@@H]1NC(=O)[C@H](CCCCN)NC(=O)[C@H](CCCCN)NC(=O)[C@H](C)NC(=O)[C@H](C(C)C)NC(=O)[C@H](C)NC(=O)[C@H](CC(C)C)NC(=O)[C@H](CC(C)C)NC(=O)[C@H](C)NC(=O)[C@H](CCCCN)NC(=O)[C@H](CC(C)C)NC(=O)[C@H](CC(N)=O)NC(=O)[C@H](CC(C)C)NC(=O)[C@@H](N)CSSC[C@@H](C(N)=O)NC(=O)[C@H](CC(C)C)NC1=O | MDA-MB-435S | MTT |  | 24 h |  | IC50 | 13.9 µM |
| CC[C@H]1OC(=O)[C@H](C(C)C)NC(=O)[C@H](C)OC(=O)[C@@H](C(C)C)NC(=O)[C@@H](C(C)C)OC(=O)[C@H](C(C)C)NC(=O)[C@H](C)OC(=O)[C@@H](C(C)C)NC(=O)[C@@H](C(C)C)OC(=O)[C@H](C(C)C)NC(=O)[C@H](C)OC(=O)[C@@H](C(C)C)NC1=O | U-87 MG | PI staining flow cytometry |  | 0.8 µM, 12 h |  | G0/G1 phase cells | 81.9% |
| CC(C)[C@]12O[C@H]1[C@@H]1O[C@]13[C@]1(O[C@H]1C[C@H]1c4c(C(=O)c5ccccc5)oc(OC(=O)c5ccccc5)c4CC[C@@]13C)[C@@H]2O | AML patient cells | apoptosis, Annexin V flow cytometry |  | 24 h, with: MS-5 stromal co-culture |  | EC50 | 0.0406 µM |
| CCCCCc1cc(OC(=O)C(NC(=O)CCC(=O)O)C(C)C)c2c(c1)OC(C)(C)C1CCC(C)=CC21 (stereo not shown) |  |  | rabbit alpha-chymotrypsin glaucoma model | dose not given |  | IOP decrease | 10% |
| F[P-](F)(F)(F)(F)F.F[P-](F)(F)(F)(F)F.[Cu+2].c1ccc(CN2CCCNCCN(Cc3ccccc3)CCCNCC2)cc1 | Leishmania donovani | parasite growth, resazurin |  | 72 h, promastigote |  | IC50 | > 20 µM |

Some of these lines once more:
| SMILES | tested on | assay | system | setting | scale | measurement | value |
| --- | --- | --- | --- | --- | --- | --- | --- |
| CN(C)CCc1c[nH]c2ccc(F)cc12 |  |  | mouse, prefrontal cortex | intraperitoneal, 10 mg/kg, 30 min |  | Egr1 mRNA level | increased |
| O=C(O)CC[C@H](NC(=O)N[C@@H](CCCCNC(=O)[C@H](Cc1ccc2ccccc2c1)NC(=O)[C@H]1CC[C@H](CNC(=O)CNC(=O)CNC(=O)CNC(=O)CN2CCN(CC(=O)O)CCN(C(CCC(=O)NCCC[P+](c3ccccc3)(c3ccccc3)c3ccccc3)C(=O)O)CCN(CC(=O)O)CC2)CC1)C(=O)O)C(=O)O (stereo partly shown) [terbium-161 labelled] | LNCaP (PSMA+) |  |  | concentration not given | baseline: cell-associated | internalized activity | 50.2% |
